Experimental data collected from several papers.
A part holds a random share of what one study measured. Substitutions count along the parent as printed.

Series 1 — method: protein-binding microarray; molecule type: double-stranded DNA, one strand shown; matrix: in vitro; tested at: 250 nM; notes: 60-bp whole probe; together with: salmon DNA 0.4 mg/ml; reference: random background probes; direction: higher = stronger binding; constant ends, left off below: GCCTAGCAC … GTCTTGATTCGCTTGACGCTGCTG
Target: Interferon regulatory factor 7, full length, phosphomimetic (IRF7, Homo sapiens, UniProt Q92985, residues 1-503, S101K/S471D/S472D/S475D/S476D/S477D/S483D/S484D/S487D)
UniProt Q92985, sequence (whole entry, unmodified, looked up): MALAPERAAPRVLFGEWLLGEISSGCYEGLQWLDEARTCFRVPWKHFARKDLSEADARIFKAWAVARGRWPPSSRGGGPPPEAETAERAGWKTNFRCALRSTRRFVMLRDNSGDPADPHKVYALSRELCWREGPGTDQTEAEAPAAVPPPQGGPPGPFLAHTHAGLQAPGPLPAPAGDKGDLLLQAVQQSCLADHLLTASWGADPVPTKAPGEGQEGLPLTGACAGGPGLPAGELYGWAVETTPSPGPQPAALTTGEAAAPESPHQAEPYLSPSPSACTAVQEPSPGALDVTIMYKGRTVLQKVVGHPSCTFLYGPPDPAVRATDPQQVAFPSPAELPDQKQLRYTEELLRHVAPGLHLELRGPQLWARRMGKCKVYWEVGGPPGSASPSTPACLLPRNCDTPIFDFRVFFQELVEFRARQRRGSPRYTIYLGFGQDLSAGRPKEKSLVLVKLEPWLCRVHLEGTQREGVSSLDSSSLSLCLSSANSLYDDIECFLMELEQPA
Sequence	log fluorescence
GACGAACTGAGTTTCGATACGTGCTAG	6.43 z-score
TTAGGGCTCCTTCTCCTTTAGTGCTAG	-0.181 z-score
GACGGACTGGTTCTCCTGACGTGCTAG	-0.476 z-score
TGAGATCTCAGACTGGATTAGTGCTAG	-0.113 z-score
GACGGTTTCGACTTTCGGGACGTGCTA	10.9 z-score
TTAGAGCTCCTCCTTCTCTAAGTGCTA	-0.671 z-score
GACGGTTTCCTTCTACTGACGTGCTAG	2.78 z-score
GACGGACTACTACTGCTGACGTGCTAG	-0.41 z-score
TTATGTATCCTTCTCCTTTAGTGCTAG	0.581 z-score
GACGATATCAGTCTTGAGACGTGCTAG	-0.143 z-score
CATATATTCACTATAGTGTGGTGCTAG	1.25 z-score
TTAGGTATCGGATTTCGGTTAGTGCTA	2.45 z-score
GACCGACTGCTACTGCTGACGTGCTAG	-0.786 z-score
GACGGACTGGCTCTCGGGACGTGCTAG	-0.734 z-score
TTGGGACTGGGACTGGGTTAGTGCTAG	-0.151 z-score
TCATCTTTCATTGCTGCACTGTGCTAG	0.587 z-score
TTAGAGATCGGGTATCGATTAGTGCTA	0.355 z-score
GACGGTAGCGGTCTCGGGACGTGCTAG	-0.764 z-score
TTAGGACTGGACTTTGGGTTAGTGCTA	-0.649 z-score
GACGGACTGAGGTTTCGGGACGTGCTA	1.68 z-score
TTAGGACTGGGTTTCGGTTTGTGCTAG	11.3 z-score
TCATTTTTTTTTTTTTCACTGTGCTAG	0.94 z-score
TTAGATATCGGGTATTGATTAGTGCTA	0.317 z-score
TTAGATCTCATTCTCGATTAGTGCTAG	1.77 z-score
TTAGGACTGGGTATCGGTAAGTGCTAG	0.15 z-score

Series 2 — method: RNA Bind-n-Seq; molecule type: RNA; matrix: in vitro; tested at: not given; notes: RNA with constant flanks, ends assumed; reference: input RNA pool; direction: higher = stronger binding
Target: RING finger protein unkempt homolog, zinc fingers 1-6, GST-SBP tag (UNK, Homo sapiens, UniProt Q9C0B0, residues 30-357)
UniProt Q9C0B0, sequence (30-357, looked up): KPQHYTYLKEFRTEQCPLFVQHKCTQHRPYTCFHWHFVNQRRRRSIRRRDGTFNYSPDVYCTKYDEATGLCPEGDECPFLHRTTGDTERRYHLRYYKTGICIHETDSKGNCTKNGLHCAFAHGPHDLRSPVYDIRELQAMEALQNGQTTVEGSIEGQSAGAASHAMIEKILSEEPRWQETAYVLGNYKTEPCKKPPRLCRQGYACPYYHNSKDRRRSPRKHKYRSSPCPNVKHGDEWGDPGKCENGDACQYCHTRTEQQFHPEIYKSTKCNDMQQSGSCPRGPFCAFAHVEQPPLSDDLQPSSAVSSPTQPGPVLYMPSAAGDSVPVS
Sequence	bound/input enrichment [ratio]
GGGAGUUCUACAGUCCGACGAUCAUUAGGCCUCUCUGGAGGCAUUACUUCCAGAAUACCCAGGGUCUCAUUUUUGUGGCCGACCGCAAUGAUCGUGAAAGAAUCCAGGAAGGAGCAGCUGUGCUGCAGAAAAUGCUUCUGGAACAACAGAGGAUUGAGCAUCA	0.202
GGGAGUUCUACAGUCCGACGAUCGAUGUAAAAAAAAAAAAAAAAAAAAAAAAAAAAACACACACACAGAGGAAAGACGCUCUUCCGGUUUUGUUUUGUUUUUUUUUUUUGGUUUUGUUUUUUGUUUUUUUUACUCUAGGGAAACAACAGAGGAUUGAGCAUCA	1.32
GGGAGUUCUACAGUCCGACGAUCCUUCUAAGUCGUGUCACUCUUCUAGAAACGGAGAUGCUGUUGUCCAAAAAGAGUGAAUCUGCCGAGCGUAAUGUGGCAAGUCAAGACUGUGAGUCAAUUAGUGAUGUGGACUUUGUACCCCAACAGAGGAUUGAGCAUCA	0.376
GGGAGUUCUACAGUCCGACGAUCAUAUGAUCUUCUGCUCUUCCCAGGUCCCUUUCUCCCGCUCCCCCACUUGCCCUUUGCUGGCCGCCGCCAUGCUCCUGUGCUCCUCAUCCGUGGGGACAGGGCUUGGAGCAGUCACCCUUUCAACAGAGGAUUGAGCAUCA	0.208
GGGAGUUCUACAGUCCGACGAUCAAAGUCACCUCUCCUGUGUUGGUCAUUCAUGGUACAGAGGAUGAGGUCAUCGAUUUCUCCCAUGGCCCCGCGAUGUACGAGCGCUGUCCCCGAGCCGUGGAGCCCCUUUGGGUUGAAGGGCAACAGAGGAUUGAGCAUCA	0.113
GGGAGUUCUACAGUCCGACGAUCUUCAUCUAUUUGUGUACAAAAUGAUGUCGUUUUGAGGGAAUUUAAGUAUUUAAAUUGCUUCACCGUCUAAAUUAUUAAUUUUCUUAAUAAAAUAACUGUUUAAACAUUGAUUUGCAGUUACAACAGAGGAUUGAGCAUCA	0.298
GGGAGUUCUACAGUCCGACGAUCCUUACCUCUUGCAAAAAAAAGAAAAAAGAAAAAAGUUCAUUUAUUCAUUCUGUUUCUAUACCGCAAAACUGAAUGUCAAAAGUACCUUCUGUCCACACACACAAAAUCUGCAUGUAUUGGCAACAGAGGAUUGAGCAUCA	0.471
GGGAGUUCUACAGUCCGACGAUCCGAUGUCCAGUUACUGUCUGUGGAGAUGUGCAUGGGCAAUUUCAUGAUCUCAUGGAACUGUUCCGAAUUGGUGGCAAAUCACCAGAUACAAAUUACUUGUUUAUGGGAGAUUAUGUUGACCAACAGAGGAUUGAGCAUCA	0.139
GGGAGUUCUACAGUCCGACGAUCUUUUCUGUUAACAGUAUUUCUUGUGUGCGUGCUUGUUGGGCAGCCCGUUUGGCUGCGUUAUACCGCGAGUGAUGAGCUGAUCCUUUCCCCUAAGAGACAUGACUUCCCUCCGUCAGCAUUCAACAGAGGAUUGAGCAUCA	0.472
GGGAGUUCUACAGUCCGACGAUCCUGACCCAUAAUAAUGGAAAGUUUAACAGUGACUCACAUUCUCCUAAAGUUUCCAGCCAGAACCGGACACGCUUAUUUGGUCAUUUUCCCGGGCCAGAGUUCUUGGACAUAGAGAAAACUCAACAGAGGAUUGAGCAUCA	0.351
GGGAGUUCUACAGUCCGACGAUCAACAACUUUCUUCAAACGCUAAAUCAAGCUUGGAAUGAUCAUCAAACAGCUAUGGUGAUGAUCCGAGACAUACUAAUGUACAUGGACCGUGUGUAUGUACAACAAAAUAAUGUGGAGAACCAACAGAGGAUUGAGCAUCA	0.119

Series 3 — method: protein binding microarray; molecule type: double-stranded DNA, one strand shown; matrix: in vitro; tested at: not given; reference: not given; direction: higher = stronger binding
Target: Histone acetyltransferase KAT6A, winged helix 1, GST fusion (KAT6A, Homo sapiens, UniProt Q92794, residues 1-85)
Notes: 8-mer, flanks averaged, mean of 2 arrays, mostly near background
Target sequence (chain): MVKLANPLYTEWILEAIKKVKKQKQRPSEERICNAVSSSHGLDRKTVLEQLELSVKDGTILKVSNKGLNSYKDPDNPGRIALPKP
Sequence	E-score
GCCACTAA	-0.136
TCGGAACA	-0.0137
CACCACTA	-0.24
TATGTGAA	-0.0526
ACCATACC	-0.0368
ACTTCCCG	0.115
ATCTAAAG	-0.127
ACGCCATC	0.0621
ATAATGCC	0.0195
GATCCAAC	-0.105
CTGCCCAA	-0.219
GGAACAAA	-0.189
CAATGCCG	0.387
AAATGAAT	-0.356
TCTGAAAA	-0.221
ACCATGCT	-0.165
CATGGTAG	-0.00598
CATGTATA	-0.177
ATCCATTA	-0.154
AATAGGCC	-0.0694
GACAAGTA	0.0568

Series 4 — method: Spec-seq; molecule type: double-stranded DNA, one strand shown; matrix: in vitro; tested at: not given; notes: whole probe, mean of replicates; reference: not given; direction: lower = stronger binding; constant ends, left off below: GAGTCGTCTCGTCAGCAC … CCGTAGAGCACTCAGGTC
Target: Transcription factor SOX-2, HMG box (Sox2, Mus musculus, UniProt P48432, residues 41-119)
UniProt P48432, sequence (41-119, looked up): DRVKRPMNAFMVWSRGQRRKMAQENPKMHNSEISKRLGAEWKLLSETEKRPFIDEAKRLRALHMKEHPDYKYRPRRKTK
Sequence	relative binding energy [ln ratio]
TGTAGTT	-0.0698
CATTCTC	-1.14
GTTGGTT	1.16
CATCGTT	0.304
CATTATA	-1.82
GTAGGTT	1.11
CATGCTT	0.438
CATTTTG	-0.154
TCATGTT	0.252
CATGCTC	0.473
GTGGGTT	1.47
CATGGCT	0.267
GCTTGTT	-0.248
CATGATA	0.0218
CATGTCG	0.659
AAGTGTT	-0.544
CATGTTA	0.397
CATGAGA	0.242
CATGTCT	0.495
TGCTGTT	0.0622
TCTCGTT	0.769
ATCTGTT	-0.153
CATATTC	0.149
CGCGGTT	1.21
TCACGTT	0.987

Series 5 — target: CEP164, C-terminal peptide (human); method: DHFR complementation, deep sequencing; matrix: yeast; reference: wild type; direction: higher = weaker binding
Notes: single substitutions, model-inferred values
Starting sequence: PDZK1, PDZ domain 2 (human); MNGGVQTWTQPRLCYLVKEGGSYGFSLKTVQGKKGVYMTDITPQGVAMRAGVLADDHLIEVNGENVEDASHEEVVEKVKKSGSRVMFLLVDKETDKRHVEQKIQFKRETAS; partner HNRVKVYRF
Substitution	binding free energy change [kcal/mol]
V78P	1.25
G20M	0.381
K34H	0.339
K106P	-0.173
Q6C	-0.031
V36R	1.35
D91N	-0.162
V74L	0.822
S70C	0.00457
G82S	0.677
K80A	0.408

Series 6 — method: universal PBM; molecule type: double-stranded DNA, one strand shown; matrix: in vitro; tested at: not given; direction: higher = stronger binding
Target: Sal-like protein 4, full length isoform B (SALL4, Homo sapiens, UniProt Q9UJQ4-2, residues 1-616)
Notes: 8-mer, flanks averaged, mean of replicates
Residues (chain): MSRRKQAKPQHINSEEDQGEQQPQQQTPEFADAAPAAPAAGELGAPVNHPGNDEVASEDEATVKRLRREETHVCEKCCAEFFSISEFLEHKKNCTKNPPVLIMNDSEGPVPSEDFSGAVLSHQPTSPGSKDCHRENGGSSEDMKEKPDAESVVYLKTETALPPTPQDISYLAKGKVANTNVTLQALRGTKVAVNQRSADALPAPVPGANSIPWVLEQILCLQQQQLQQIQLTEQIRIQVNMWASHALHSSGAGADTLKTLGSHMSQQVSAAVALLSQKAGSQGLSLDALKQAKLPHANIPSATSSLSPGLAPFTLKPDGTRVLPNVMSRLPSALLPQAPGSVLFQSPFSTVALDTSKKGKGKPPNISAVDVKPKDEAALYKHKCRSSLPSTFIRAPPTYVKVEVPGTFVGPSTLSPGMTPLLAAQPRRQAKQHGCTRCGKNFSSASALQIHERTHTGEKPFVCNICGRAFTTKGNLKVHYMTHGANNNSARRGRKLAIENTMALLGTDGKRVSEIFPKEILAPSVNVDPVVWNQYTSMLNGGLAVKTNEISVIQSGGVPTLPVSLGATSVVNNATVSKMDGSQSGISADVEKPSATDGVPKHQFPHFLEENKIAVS
Sequence	E-score
CATTACGA	0.0677
AACATAGT	0.191
ACTTTCAT	0.266
GTGAGTCA	-0.0864
CGGGCGAC	-0.361
ATCCAGGC	-0.298
CCACTCGA	-0.0796
AAAATCCT	0.0483
TCTATGCA	0.226
CTCTCCAC	-0.0311
ATCCAGTC	-0.0967
CAGTTTCG	-0.0979
CCTGGTGC	-0.289
CGACGGAC	-0.242
TACAATCA	0.213
TAGTCTGA	-0.066
CGAAGGGA	-0.209
TACGTTGA	0.227
AGGCTGAC	-0.228
CAGAGGGA	-0.286

A few entries again (series 6):
Sequence	E-score
AACATAGT	0.191
ACTTTCAT	0.266
CCTGGTGC	-0.289
TAGTCTGA	-0.066
AAAATCCT	0.0483
CATTACGA	0.0677
AGGCTGAC	-0.228
TCTATGCA	0.226
CGACGGAC	-0.242
